Published values of several laboratories.
Compare with care: the assays were run in different laboratories. Several values in a cell are separate wells, animals, samples, runs or records.

Compound = CCn1cc(/C=C/c2ccc3ccccc3[n+]2CC)c2ccccc21; test system = DMSO; Stokes shift = 77 nm
Compound = NCCC(=O)N1Cc2ccccc2-c2c(nnn2-c2cn(C3OC(CO)C(O)C3O)c(=O)[nH]c2=O)-c2ccccc21 (mixture of isomers); test system = methanol; Stokes shift = 49 nm
Compound = COc1cc(OC)cc(C2=C3C(C)=C(I)C(/C=C/c4cccs4)=[N+]3[B-](F)(F)n3c(/C=C/c4cccs4)c(I)c(C)c32)c1; test system = DMSO; Stokes shift = 364 cm⁻¹
Compound = COC(=O)c1ccccc1-c1c2ccc(=O)cc-2oc2c1ccc1cccc(OC)c12; test system = phosphate buffer 10% DMSO; conditions = pH 7.4; Stokes shift = 50 nm
Compound = CCn1cc(/C=C/c2sc3ccccc3[n+]2CC)c2ccccc21; test system = PBS; Stokes shift = 74 nm and > 70 nm
Compound = Nc1ncnc2c1nc(-n1nnc3c1CCC1C(CO)C1CC3)n2C1OC(CO)C(O)C1O (mixture of isomers); test system = methanol; Stokes shift = 83 nm
Compound = CCOC(=O)c1[nH]c(C)c(/C=C/c2c(I)c(C)c3n2[B-](F)(F)[N+]2=C(C)C(I)=C(C)C2=C3c2cc(OC)cc(OC)c2)c1C; test system = dichloromethane; Stokes shift = 578 cm⁻¹
Compound = COC(=O)c1ccccc1-c1c2ccc(=O)cc-2oc2c1ccc1cccc(O)c12; test system = aqueous HCl 10% DMSO; conditions = pH 1.9; Stokes shift = 70 nm
Compound = COc1cc(OC)cc(C2=C3C(C)=C(I)C(C)=[N+]3[B-](F)(F)n3c(/C=C/c4cccs4)c(I)c(C)c32)c1; test system = dichloromethane; Stokes shift = 301 cm⁻¹
Compound = CC[N+]1=C(C=CC=CC=C2N(CCCCCC(=O)O)c3ccc4c(S(=O)(=O)[O-])cc(S(=O)(=O)[O-])cc4c3C2(C)C)C(C)(C)c2c1ccc1c(S(=O)(=O)[O-])cc(S(=O)(=O)[O-])cc21.[K+].[K+].[K+]; test system = 100% serum; conditions = pH 7.4; Stokes shift = 13 nm
Compound = COC(=O)c1ccccc1-c1c2ccc(=N)cc-2oc2c1ccc1cccc(OC)c12; test system = phosphate buffer 10% DMSO; conditions = pH 7.4; Stokes shift = 58 nm
Compound = NCCC(=O)N1Cc2ccccc2-c2c(nnn2-c2nc3c(N)ncnc3n2C2OC(CO)C(O)C2O)-c2ccccc21 (mixture of isomers); test system = methanol; Stokes shift = 80 nm
Compound = COc1cc(OC)cc(C2=C3C(C)=C(I)C(/C=C/c4c[nH]c5ccc([N+](=O)[O-])cc45)=[N+]3[B-](F)(F)n3c(/C=C/c4c[nH]c5ccc([N+](=O)[O-])cc45)c(I)c(C)c32)c1; test system = DMSO; Stokes shift = 676 cm⁻¹

For quick reference, copied from above:
Compound = Nc1ncnc2c1nc(-n1nnc3c1CCC1C(CO)C1CC3)n2C1OC(CO)C(O)C1O (mixture of isomers); test system = methanol; Stokes shift = 83 nm
Compound = CC[N+]1=C(C=CC=CC=C2N(CCCCCC(=O)O)c3ccc4c(S(=O)(=O)[O-])cc(S(=O)(=O)[O-])cc4c3C2(C)C)C(C)(C)c2c1ccc1c(S(=O)(=O)[O-])cc(S(=O)(=O)[O-])cc21.[K+].[K+].[K+]; test system = 100% serum; conditions = pH 7.4; Stokes shift = 13 nm
